Results of several laboratories.
Each numbered part is a random draw from the data of one study; scales do not carry over between parts. Substitutions count along the parent as printed.

Study 1 — technique: protein-binding microarray; form: double-stranded DNA, one strand shown; matrix: in vitro; tested at: 940 nM top; setting: 60-bp whole probe; with: salmon DNA 0.4 mg/ml; baseline: random background probes; reading: higher = stronger binding; shared flanks, not repeated: GCCTAGCAC … GTCTTGATTCGCTTGACGCTGCTG
Target: Interferon regulatory factor 5, full length, phosphomimetic (IRF5, Homo sapiens, UniProt Q13568-2, residues 1-514, S451D/S453D/S456D/S462D)
| Strand | fitted relative affinity [z-score] |
| --- | --- |
| TTAGGTCGCCTTATCCTTTAGTGCTAG | 0.109 |
| TCAGAAATTTCTTTCTAACTGTGCTAG | 0.2 |
| TCAGTTACCCATCTCAAACTGTGCTAG | 0.88 |
| GACGATATCGGGTTTCGACACGTGCTA | 2.57 |
| TCATTCCTCTTTTTTGTACTGTGCTAG | 1.9 |
| GAGGGTATCGACACTGGGGACGTGCTA | 2.25 |
| TCACTTTTAATTTTTAAACTGTGCTAG | 0.436 |
| TCAAGTCTGGGCTACAACACTGTGCTA | -0.604 |

Study 2 — technique: RNA Bind-n-Seq; form: RNA; matrix: in vitro; tested at: 365 nM; baseline: no-protein control; reading: higher = stronger binding
Target: RNA binding protein fox-1 homolog 2, RRM domain, GST-SBP tag (RBFOX2, Homo sapiens, UniProt O43251-10, residues 100-194)
Setting: natural RNA segment, single round, ends assumed
Construct (chain): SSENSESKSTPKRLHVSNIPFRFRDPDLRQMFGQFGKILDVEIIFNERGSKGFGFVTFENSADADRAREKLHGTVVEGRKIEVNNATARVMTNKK
| Strand | RBNS enrichment (R) |
| --- | --- |
| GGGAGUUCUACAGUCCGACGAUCGGAGCCCGAUAAAGACUUUGCCUGGAUCUCCUAGGGGCUCUGCUCUAGUGGGCAGGGUGAGUGAUGGCUGAAUCGCUUUGUCCACCUGUGUGUGUGUCUUAGUGGAUCUUUGGAAUUCUCGGGUGCCAA | 0.54 |
| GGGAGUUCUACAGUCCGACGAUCAACGCGCCUGAAACACCCCGCGGGCCUCCCGUUGUCAUGCCUUACGGUUUCCAAUGCGCCGUCACCAUCUCCACCUGCCACCAAACCACCAGCAGAGUAGCCGCCGCUGCUGGAAUUCUCGGGUGCCAA | 0.784 |
| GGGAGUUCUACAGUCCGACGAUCCCCUGCAUCCAGGAUGGUACCAGCUCCCGCCCCUCGCCCCCCACCUCCACAGGUGCCUUAAAGGGCCCUCGUCCACCCAAGGUGGGGGGCAGGGGCCCUCACUCUCCGGCUGGAAUUCUCGGGUGCCAA | 0.383 |
| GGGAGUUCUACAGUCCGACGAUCAUAAUGGGAAUCUCGGAGUUCGACACCAUAGUGACGUUCAGCGUCCUCUGAAUUGUGCUACAUCAGCGAACAAGUCGGCGCUUGAAUUGGAUUUUGAGGUUAUUUUAACCUGGAAUUCUCGGGUGCCAA | 0.343 |
| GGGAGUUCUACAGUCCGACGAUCACGGAUUGUUCAGCUUCAGACUGACAAAUGCCUUUCUCACAAGUUCCUGCUUCUUGCCGUGAUACUGUGCCCCAGAACAGCCUGGGGUCCCUGCUAGUUCCUGUCAAGGCUGGAAUUCUCGGGUGCCAA | 0.657 |
| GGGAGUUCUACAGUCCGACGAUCGUCAUCGACCUGUAGCACUGGCUGCAUGGCCACUGCUGUGGUUCUGUAGAACAUCCGCCAUGCCGUCCCAGCUGGCGGAGGGGGAGCUGCCCACCUAGCUGGGUUUGGACUGGAAUUCUCGGGUGCCAA | 0.539 |
| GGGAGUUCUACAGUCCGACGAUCAGUUGUACUGUAUGCAGUUUUGUAAAUAAGUGAAAAUAAUUUGUUGUACUUUUUAUUCAAUUCUGUAUAGAUUAUAAAAUUAUUUUUAUUAAAUAAAUAUUUUACAGUAUUGGAAUUCUCGGGUGCCAA | 1.52 |
| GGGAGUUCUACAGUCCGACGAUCAGGGAUACAUACAGUUGCAUGUCUGCUUCAAUUAGCAGAUGCUGCAGAUCCACACAGUGUAAAAUACUAUACAACCAAACAUCCGCCUUUACAGGUCGUUAUUCUUCUAAUGGAAUUCUCGGGUGCCAA | 1.45 |

Study 3 — technique: protein binding microarray; form: double-stranded DNA, one strand shown; matrix: in vitro; tested at: not given; baseline: not given; reading: higher = stronger binding
Target: Histone acetyltransferase KAT6A, winged helix 2, GST fusion (KAT6A, Homo sapiens, UniProt Q92794, residues 85-181)
Setting: 8-mer, flanks averaged, mean of 2 arrays, mostly near background
Residues (chain): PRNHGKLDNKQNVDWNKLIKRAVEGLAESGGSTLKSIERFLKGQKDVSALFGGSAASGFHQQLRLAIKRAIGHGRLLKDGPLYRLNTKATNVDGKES
| Strand | E-score |
| --- | --- |
| CATTTGAA | -0.133 |
| GCTCTGTA | 0.00163 |
| GCAAACGC | 0.139 |
| CTAGAAGA | -0.0344 |
| CCTCCTAA | -0.0547 |
| ATCGTTCG | -0.122 |
| AGCGTGGA | -0.0532 |
| ATAGGCAT | -0.118 |

Further values, each from its own experiment
Starting sequence: viral docking peptide; TSVRRALFTGGSD; partner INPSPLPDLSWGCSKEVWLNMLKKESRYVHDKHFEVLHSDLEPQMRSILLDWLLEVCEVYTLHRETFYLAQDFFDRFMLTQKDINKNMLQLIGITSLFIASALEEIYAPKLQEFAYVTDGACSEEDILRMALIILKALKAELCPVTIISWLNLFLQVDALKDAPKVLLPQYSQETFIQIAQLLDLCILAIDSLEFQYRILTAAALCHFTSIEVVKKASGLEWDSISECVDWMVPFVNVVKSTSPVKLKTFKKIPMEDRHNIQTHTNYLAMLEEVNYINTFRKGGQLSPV
| Change | target | assay | system | conditions | how to read | endpoint | value |
| --- | --- | --- | --- | --- | --- | --- | --- |
| TSVRRALCTGGSD [F8C] | CCNE2, cyclin fold, Cln2 fusion (human) | yeast growth competition, sequencing | yeast | strong parent motif | baseline: not given, higher = stronger binding | normalised enrichment score | 0.0527 |

Some of these lines once more (study 2):
| Strand | RBNS enrichment (R) |
| --- | --- |
| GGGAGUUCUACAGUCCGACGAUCAACGCGCCUGAAACACCCCGCGGGCCUCCCGUUGUCAUGCCUUACGGUUUCCAAUGCGCCGUCACCAUCUCCACCUGCCACCAAACCACCAGCAGAGUAGCCGCCGCUGCUGGAAUUCUCGGGUGCCAA | 0.784 |
| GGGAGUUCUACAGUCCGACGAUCCCCUGCAUCCAGGAUGGUACCAGCUCCCGCCCCUCGCCCCCCACCUCCACAGGUGCCUUAAAGGGCCCUCGUCCACCCAAGGUGGGGGGCAGGGGCCCUCACUCUCCGGCUGGAAUUCUCGGGUGCCAA | 0.383 |
| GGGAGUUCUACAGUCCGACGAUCAUAAUGGGAAUCUCGGAGUUCGACACCAUAGUGACGUUCAGCGUCCUCUGAAUUGUGCUACAUCAGCGAACAAGUCGGCGCUUGAAUUGGAUUUUGAGGUUAUUUUAACCUGGAAUUCUCGGGUGCCAA | 0.343 |
| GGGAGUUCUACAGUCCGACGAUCACGGAUUGUUCAGCUUCAGACUGACAAAUGCCUUUCUCACAAGUUCCUGCUUCUUGCCGUGAUACUGUGCCCCAGAACAGCCUGGGGUCCCUGCUAGUUCCUGUCAAGGCUGGAAUUCUCGGGUGCCAA | 0.657 |
